Experimental data of several laboratories.
Lines come from different studies, so protocols differ.
Target: Death-associated protein kinase 1 (DAPK1, Homo sapiens, UniProt P53355)
Sequence of UniProt P53355 (whole entry, looked up): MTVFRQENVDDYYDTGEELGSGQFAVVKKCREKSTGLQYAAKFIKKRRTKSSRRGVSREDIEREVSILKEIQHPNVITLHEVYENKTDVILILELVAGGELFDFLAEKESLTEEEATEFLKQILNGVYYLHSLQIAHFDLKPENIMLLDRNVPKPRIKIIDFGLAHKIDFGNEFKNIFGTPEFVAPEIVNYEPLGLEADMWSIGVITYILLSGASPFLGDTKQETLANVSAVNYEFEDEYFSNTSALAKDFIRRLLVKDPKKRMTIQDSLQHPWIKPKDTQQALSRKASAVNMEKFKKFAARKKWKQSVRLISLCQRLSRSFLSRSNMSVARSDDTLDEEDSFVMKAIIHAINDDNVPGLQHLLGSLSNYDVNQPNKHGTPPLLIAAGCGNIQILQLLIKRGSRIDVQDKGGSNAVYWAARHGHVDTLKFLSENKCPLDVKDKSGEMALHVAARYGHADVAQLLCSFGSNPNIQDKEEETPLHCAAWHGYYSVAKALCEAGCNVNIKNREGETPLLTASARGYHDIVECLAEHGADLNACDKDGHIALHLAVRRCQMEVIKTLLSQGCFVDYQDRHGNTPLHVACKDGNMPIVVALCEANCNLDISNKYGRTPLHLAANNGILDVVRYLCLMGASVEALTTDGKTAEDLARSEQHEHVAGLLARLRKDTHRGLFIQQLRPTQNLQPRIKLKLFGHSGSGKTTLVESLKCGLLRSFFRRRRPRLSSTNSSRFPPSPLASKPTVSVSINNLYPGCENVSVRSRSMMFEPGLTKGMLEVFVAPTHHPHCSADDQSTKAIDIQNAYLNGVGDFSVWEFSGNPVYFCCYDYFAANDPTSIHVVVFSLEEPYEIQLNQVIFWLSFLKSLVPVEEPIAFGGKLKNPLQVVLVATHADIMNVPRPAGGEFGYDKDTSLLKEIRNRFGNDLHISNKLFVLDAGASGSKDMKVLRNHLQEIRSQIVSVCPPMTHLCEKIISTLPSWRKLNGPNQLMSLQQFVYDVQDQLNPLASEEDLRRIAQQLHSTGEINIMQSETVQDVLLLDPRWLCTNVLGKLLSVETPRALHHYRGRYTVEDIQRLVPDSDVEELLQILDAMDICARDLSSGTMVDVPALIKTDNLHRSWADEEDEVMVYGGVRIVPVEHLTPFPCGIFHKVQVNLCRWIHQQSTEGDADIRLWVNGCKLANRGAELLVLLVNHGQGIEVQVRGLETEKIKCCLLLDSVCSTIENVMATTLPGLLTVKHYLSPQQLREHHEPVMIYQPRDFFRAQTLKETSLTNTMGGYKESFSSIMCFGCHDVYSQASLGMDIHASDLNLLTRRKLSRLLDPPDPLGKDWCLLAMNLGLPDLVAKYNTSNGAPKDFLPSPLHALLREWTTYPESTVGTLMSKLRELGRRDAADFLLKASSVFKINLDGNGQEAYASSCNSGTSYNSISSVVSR

O=C1NC(=O)/C(=C/c2ccc(-c3ccc(F)cc3O)o2)S1
remaining activity (enzyme activity; 10 µM): 8%

C=CC(=O)N1CCC(COCC(=O)N2CCN(c3nc(-c4cnc(N)nc4C(F)F)nc(N4CCOC[C@@H]4C)n3)CC2)CC1
remaining binding (KINOMEscan; 1 µM): 91%

COc1cc(F)ccc1-c1ncnc(Nc2cccc(C[S@](C)(=N)=O)c2)n1
remaining activity (kinase activity; 10 µM, added: 10 µM ATP): 96%

c1cnc2ccc(Nc3nc(NC4CC4)c4nc[nH]c4n3)cc2c1
remaining activity (kinase activity, inhibitor, SelectScreen kinase profiling; 1 µM; reference: control): 55%

O=C1[C@H]2CCCN2[C@H](c2cccc3c2OCO3)N1c1ccc(Cl)c(Cl)c1 (racemic)
kinase activity (enzyme activity, inhibitor, ADP-Glo; 100 µM): no effect

CNc1ncc2c(/C=C/C(=O)N3CCC(OC)CC3)nn(Cc3cccc(C(F)(F)F)c3)c2n1
remaining activity (kinase activity, inhibitor; 1 µM; reference: untreated control): 115%

O=C1[C@H]2CCCN2[C@H](c2ccc3c(c2)OCO3)N1c1ccc(Cl)c(Cl)c1 (mixture of isomers)
kinase activity (enzyme activity, inhibitor, ADP-Glo; 100 µM): no effect

O=C(NC1CCC1)c1ccc2nc(-c3cccc(NS(=O)(=O)NCCN4CCCCC4)c3)cn2c1
remaining activity (enzyme activity; 10 µM): 82%

Cc1cc(Nc2cc(N3CCN(C)CC3)nc(Sc3ccc(NC(=O)C4CC4)cc3)n2)[nH]n1
remaining activity (kinase activity, KinaseProfiler; 0.03 µM, species human; reference: control): 103%

Excerpt of the above:
O=C1[C@H]2CCCN2[C@H](c2cccc3c2OCO3)N1c1ccc(Cl)c(Cl)c1 (racemic)
kinase activity (enzyme activity, inhibitor, ADP-Glo; 100 µM): no effect
